Measured values pooled from the literature.
Each numbered part is a random draw from the data of one study; scales do not carry over between parts. Substitutions count along the parent as printed.
UniProt Q05940, sequence (whole entry, looked up): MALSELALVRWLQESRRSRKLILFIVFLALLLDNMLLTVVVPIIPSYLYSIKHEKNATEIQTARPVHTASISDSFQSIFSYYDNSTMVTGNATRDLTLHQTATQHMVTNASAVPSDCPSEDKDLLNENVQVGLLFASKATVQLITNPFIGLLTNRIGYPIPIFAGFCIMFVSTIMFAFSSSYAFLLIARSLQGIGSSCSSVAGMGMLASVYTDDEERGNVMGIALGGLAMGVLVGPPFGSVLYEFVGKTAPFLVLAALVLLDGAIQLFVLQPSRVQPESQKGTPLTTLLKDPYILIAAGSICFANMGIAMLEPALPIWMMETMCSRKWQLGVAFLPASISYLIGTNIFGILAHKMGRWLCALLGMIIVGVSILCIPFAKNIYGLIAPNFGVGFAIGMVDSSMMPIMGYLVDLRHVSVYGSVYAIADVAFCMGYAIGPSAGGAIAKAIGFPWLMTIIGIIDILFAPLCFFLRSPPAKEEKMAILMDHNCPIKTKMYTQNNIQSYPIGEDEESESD

Block 1
Substitution: K116V
Target: ABI1, truncated, D143A, DHFR fusion (Arabidopsis thaliana)
Method: DHFR PCA, deep sequencing
Sample: yeast
Notes: methotrexate growth selection, single substitutions
Relative to: wild-type fitted maximum
Direction: higher = stronger binding
Starting sequence: PYL1, truncated, DHFR fusion (Arabidopsis thaliana); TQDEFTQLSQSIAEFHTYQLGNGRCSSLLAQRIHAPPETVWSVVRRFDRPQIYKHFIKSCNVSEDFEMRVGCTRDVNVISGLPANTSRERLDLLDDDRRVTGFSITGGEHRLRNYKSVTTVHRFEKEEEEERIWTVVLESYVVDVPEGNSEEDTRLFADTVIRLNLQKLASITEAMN; partner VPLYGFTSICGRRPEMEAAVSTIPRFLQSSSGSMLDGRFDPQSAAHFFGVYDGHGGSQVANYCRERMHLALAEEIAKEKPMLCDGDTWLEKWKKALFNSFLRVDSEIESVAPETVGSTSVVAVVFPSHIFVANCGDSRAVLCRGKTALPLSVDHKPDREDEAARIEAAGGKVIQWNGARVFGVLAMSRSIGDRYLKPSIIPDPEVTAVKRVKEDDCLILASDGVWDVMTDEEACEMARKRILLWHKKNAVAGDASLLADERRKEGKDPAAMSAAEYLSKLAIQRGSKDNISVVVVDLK
The “relative binding score” was -4.86% (added: (+)-ABA 1.4 µM).
It gave 82.5% for “relative binding score” (added: (+)-ABA 710 µM).
It gave 8.03% for “relative binding score” (added: (+)-ABA 0.0091 µM).
It gave 28.6% for “relative binding score” (added: (+)-ABA 17 µM).
For added: (+)-ABA 58 µM: “relative binding score” read 38.2%.
For added: (+)-ABA 0.11 µM: “relative binding score” read -4.69%.

Block 2
Target: OGT, full length, His-tagged (human)
Method: phage display, sequencing
Sample: in vitro
Concentration: 1 µg OGT
Notes: single substitutions, 15-mer displayed peptide, unchanged parent 19.6
Relative to: input library
Direction: higher = stronger binding
Starting sequence: peptide; TAPFYPPAYQIQVFK
`P6Q` has a fold enrichment of 0.625 fold.
`Q10V` gave a fold enrichment of 0.856 fold.
`A8K` gave a fold enrichment of 18.3 fold.
The fold enrichment of `P6I` is reported as 1.13 fold.
`Y9D` gave a fold enrichment of 0.555 fold.
With `P7M` the fold enrichment was 1.54 fold.
With `P6F` the fold enrichment was 3.58 fold.
The fold enrichment of `V13T` is reported as 13.8 fold.

Block 3
Target: Histone acetyltransferase KAT6A, winged helix 1, GST fusion (KAT6A, Homo sapiens, UniProt Q92794, residues 1-85)
Method: protein binding microarray
Form: double-stranded DNA, one strand shown
Sample: in vitro
Concentration: not given
Notes: 8-mer, flanks averaged, mean of 2 arrays, mostly near background
Relative to: not given
Direction: higher = stronger binding
Target sequence (chain): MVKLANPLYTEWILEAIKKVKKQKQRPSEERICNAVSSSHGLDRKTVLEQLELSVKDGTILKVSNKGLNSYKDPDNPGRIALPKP
With `CCCTTACG` the E-score was 0.0807.
For `GATCCAGA`, the E-score was -0.158.
With `CACGCTAG` the E-score was 0.138.
`AGGAGGTG` gave an E-score of -0.186.
The E-score of `GAGGTCGC` is reported as 0.125.
For `CTCTCGTA`, the E-score was -0.175.
For `AACACGGG`, the E-score was 0.24.
With `AGGATACG` the E-score was -0.0688.

Single results of other studies
The IC50 of CC(C)OC(=O)OCOP(=O)(CO[C@H](C)Cn1cnc2c(N)ncnc21)OCOC(=O)OC(C)C is reported as greater than 10 µM (Synaptic vesicular amine transporter (SLC18A2, Homo sapiens, UniProt Q05940); inhibitor; literature data).

Excerpt of the above (block 2):
`Q10V` gave a fold enrichment of 0.856 fold.
`A8K` gave a fold enrichment of 18.3 fold.
The fold enrichment of `P6I` is reported as 1.13 fold.
`Y9D` gave a fold enrichment of 0.555 fold.
